Experimental data of several laboratories.
± marks the error that the study gave.
Chain of UniProt O00574 (whole entry, looked up): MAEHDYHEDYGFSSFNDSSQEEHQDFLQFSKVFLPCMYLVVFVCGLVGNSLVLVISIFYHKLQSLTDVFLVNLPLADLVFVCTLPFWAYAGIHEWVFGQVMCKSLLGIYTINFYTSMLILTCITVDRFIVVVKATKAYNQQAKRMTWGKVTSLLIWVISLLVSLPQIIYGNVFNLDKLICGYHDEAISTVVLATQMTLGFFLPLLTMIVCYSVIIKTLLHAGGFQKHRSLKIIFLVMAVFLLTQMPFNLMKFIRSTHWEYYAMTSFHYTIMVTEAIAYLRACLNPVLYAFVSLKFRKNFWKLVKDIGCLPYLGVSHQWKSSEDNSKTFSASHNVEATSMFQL
Chain of UniProt P39900 (whole entry, looked up): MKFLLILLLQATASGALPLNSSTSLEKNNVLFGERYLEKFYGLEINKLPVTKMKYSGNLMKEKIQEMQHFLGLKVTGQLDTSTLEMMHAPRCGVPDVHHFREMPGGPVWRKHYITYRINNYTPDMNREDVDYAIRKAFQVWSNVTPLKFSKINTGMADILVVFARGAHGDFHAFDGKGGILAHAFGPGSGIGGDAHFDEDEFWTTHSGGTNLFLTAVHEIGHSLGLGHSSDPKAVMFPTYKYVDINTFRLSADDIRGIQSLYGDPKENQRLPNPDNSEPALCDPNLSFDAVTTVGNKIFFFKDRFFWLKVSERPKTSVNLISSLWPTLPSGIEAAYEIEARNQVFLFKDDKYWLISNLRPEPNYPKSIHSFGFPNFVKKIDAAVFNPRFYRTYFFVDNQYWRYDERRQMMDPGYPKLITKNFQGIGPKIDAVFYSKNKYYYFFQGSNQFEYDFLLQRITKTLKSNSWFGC
Chain of UniProt P41252 (whole entry, looked up): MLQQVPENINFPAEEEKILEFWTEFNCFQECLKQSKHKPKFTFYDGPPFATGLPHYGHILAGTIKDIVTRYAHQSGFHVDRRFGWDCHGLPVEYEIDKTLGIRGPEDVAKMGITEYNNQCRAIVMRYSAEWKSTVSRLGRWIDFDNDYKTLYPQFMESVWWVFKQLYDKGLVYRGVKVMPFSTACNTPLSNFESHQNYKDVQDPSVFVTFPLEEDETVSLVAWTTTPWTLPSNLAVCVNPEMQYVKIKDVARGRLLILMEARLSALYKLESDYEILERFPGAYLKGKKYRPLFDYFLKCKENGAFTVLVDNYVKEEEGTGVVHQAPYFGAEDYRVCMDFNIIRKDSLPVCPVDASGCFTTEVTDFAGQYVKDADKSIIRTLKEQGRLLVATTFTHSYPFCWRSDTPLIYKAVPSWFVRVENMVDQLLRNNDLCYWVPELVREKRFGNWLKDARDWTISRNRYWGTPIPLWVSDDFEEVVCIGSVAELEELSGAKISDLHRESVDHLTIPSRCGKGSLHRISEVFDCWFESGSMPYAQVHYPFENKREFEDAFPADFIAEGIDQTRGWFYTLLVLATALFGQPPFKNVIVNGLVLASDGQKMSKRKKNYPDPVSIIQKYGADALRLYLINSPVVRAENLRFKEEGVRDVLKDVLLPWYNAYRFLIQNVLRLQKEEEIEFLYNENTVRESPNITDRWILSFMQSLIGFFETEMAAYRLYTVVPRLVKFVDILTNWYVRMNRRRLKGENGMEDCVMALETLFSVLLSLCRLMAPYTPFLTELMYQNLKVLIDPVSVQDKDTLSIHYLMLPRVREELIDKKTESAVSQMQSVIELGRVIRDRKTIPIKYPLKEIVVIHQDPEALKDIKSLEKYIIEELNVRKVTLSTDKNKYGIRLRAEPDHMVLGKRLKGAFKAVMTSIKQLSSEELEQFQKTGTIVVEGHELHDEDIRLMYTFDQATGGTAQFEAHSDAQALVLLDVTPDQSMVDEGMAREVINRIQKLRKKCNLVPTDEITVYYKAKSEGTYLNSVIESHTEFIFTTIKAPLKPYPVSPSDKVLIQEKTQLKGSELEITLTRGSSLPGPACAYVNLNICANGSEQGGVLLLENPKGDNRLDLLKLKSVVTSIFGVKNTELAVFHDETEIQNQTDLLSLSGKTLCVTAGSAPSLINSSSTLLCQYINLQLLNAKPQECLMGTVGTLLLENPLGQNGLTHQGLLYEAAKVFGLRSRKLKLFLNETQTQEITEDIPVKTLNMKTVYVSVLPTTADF
Chain of UniProt Q8TDU6 (whole entry, looked up): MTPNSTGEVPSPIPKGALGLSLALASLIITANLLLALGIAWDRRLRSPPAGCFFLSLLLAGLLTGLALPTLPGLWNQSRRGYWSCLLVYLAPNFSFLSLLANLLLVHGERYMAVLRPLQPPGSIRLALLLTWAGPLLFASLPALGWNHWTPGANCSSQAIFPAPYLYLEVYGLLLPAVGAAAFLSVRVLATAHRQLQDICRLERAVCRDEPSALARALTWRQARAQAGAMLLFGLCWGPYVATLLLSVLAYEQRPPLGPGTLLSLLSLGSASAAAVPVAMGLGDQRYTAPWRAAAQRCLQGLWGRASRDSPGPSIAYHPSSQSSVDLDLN
Chain of UniProt P49760 (whole entry, looked up): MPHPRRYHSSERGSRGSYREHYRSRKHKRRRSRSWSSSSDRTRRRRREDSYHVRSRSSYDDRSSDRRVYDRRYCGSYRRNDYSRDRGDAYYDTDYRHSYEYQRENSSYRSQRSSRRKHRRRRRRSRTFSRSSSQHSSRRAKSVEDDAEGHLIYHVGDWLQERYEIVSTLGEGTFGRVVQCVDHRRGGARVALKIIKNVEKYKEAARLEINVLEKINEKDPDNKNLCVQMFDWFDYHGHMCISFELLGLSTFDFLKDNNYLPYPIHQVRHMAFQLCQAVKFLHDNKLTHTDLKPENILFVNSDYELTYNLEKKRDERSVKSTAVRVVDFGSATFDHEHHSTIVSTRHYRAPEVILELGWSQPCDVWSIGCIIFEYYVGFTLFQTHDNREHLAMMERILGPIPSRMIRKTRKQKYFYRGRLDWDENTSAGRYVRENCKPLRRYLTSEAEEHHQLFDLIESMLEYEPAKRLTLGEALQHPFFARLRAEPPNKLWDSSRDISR

Cc1cccc(Cn2nc(C3CC3)c3c(NC(=O)c4cnc5cc(OCCN6CCN(C)CC6)ccn45)cccc32)n1  adverse events incidence (measured: Pyrexia; human advanced solid tumours; oral, dose not given, all-causality,, all doses): 36.8%
COc1cc(Nc2ncc(F)c(Nc3ccc4c(n3)NC(=O)C(C)(C)O4)n2)cc(OC)c1OC  IC50 (MMP12 (Homo sapiens, UniProt P39900); metalloproteinase-12): > 10 µM
CO[C@H]1C[C@@H]2CC[C@@H](C)[C@@](O)(O2)C(=O)C(=O)N2CCCC[C@H]2C(=O)O[C@H]([C@H](C)C[C@@H]2CC[C@@H](OC(=O)NCCOCCOCCOCCOCCOCCOCCOCCOCCC(=O)N3CCc4cc(Cn5nc(-c6ccc7oc(N)nc7c6)c6c(N)ncnc65)ccc4C3)[C@H](OC)C2)C[C@@H](O)[C@H](C)/C=C(\C)[C@@H](O)[C@@H](OC)C(=O)[C@H](C)C[C@H](C)/C=C/C=C/C=C/1C  vomiting incidence (patients with advanced solid tumours; intravenous, 10 mg weekly, any grade): 12.5%
Clc1ccc(-c2ccccc2)cc1  potassium (Sprague-Dawley rats, female, serum; inhalation, 23 µg/rat, 0 h after exposure): 6 ± 1 mmol/L
COc1ccc(-c2c(-c3ccc(C#N)c(F)c3)nc(N3CCC(N)CC3)n(C)c2=O)cc1F  serious TEAE incidence (measured: small intestinal obstruction; human patients; oral, 60 mg, dose expansion): 0%
O=C(Nc1ccccc1)C1CCN(C(=O)Oc2cccnc2)CC1  subjects with feeling drunk (adverse event reporting; healthy women; oral, 100 mg, 9 days): 38.5%
C[C@]1(O)C[C@@](N)(c2ccc(-c3nc4n(c3-c3ccccc3)COc3ccncc3-4)cc2)C1  patients with Hyperglycemia TEAE (human, advanced or metastatic solid tumours; 16 mg once daily, dose-response cohort): 0%
C[C@]1(CO)Cc2ncn(-c3ccc(C#N)c(Cl)c3)c2C(=O)O1  Cmax at steady state (healthy Japanese adults, plasma; 40 mg once daily, multiple dose): 2830 nM
CN1CCN(c2cc(-c3ccncc3)c(-c3ccc4ccccc4c3)nn2)CC1  inhibition (CXCR6 (Homo sapiens, UniProt O00574); antagonist, FLIPR; 10 µM): 11%
CC1(C)C(=O)N(c2ccc(C#N)c(C(F)(F)F)c2)C(=S)N1c1ccc(C(N)=O)c(F)c1  central volume of distribution (population PK base model; human; dose not given): 46.8 L
COc1ncccc1-c1cnn2ccc(N3CCN(C(=O)OC(C)C)CC3)nc12  brain drug level (rat, thermal hyperalgesia model, brain; 0.1 mg/kg, 180 min post-dose): not detected
CC[C@H](C)[C@@H]1NC(=O)[C@@H]2CCCN2C(=O)[C@H](CC(C)C)NC(=O)[C@H](CC(C)C)NC(=O)CNC(=O)[C@@H](NC(=O)[C@@H](NC(=O)[C@H](CC(=O)O)NC(=O)CNC(=O)[C@@H](NC(=O)[C@H](C)NC(=O)CNC(=O)[C@H](CCCCN)NC(=O)[C@H](CC(C)C)NC(=O)[C@H](CC(C)C)NC(=O)[C@H](CCCCN)NC(=O)CNC(=O)[C@@H](NC(=O)[C@@H](N)CC(C)C)C(C)C)C(C)C)C(C)C)CSSC[C@@H](C(=O)O)NC1=O  log2 fold change (RNA-seq, measured: Col7a1; mouse, traumatic brain injury model, frontal cortex and hippocampus; dose not given; baseline: TBI alone): -1.81
NCCCC[C@@H]1NC(=O)[C@@H](Cc2c[nH]c3ccccc23)NC(=O)[C@H](c2ccccc2)NC(=O)[C@@H]2C[C@@H](OC(=O)NCCN)CN2C(=O)[C@H](Cc2ccccc2)NC(=O)[C@H](Cc2ccc(OCc3ccccc3)cc2)NC1=O  subjects with discoloured faeces (healthy human volunteers; 1950 µg twice daily): 32%
C[C@@H]1OC(=O)NN=C1c1ccc(-c2ccc(F)cc2)c(C(F)(F)F)c1  patients with adverse event (phase I trial, measured: Presyncope all grades; human patients; dose not given, all dose groups): 20%
CC(=O)c1c([O-])cc(C)oc1=O.[Na+]  mean residence time (Wistar rat, female, serum; oral, 200 mg/kg, no CYP inhibitor): 8.01 ± 0.23 h
CCc1ccc(CC/C=C/c2ccc3c(c2)C(=O)CC3)cc1  total protein (Sprague-Dawley rat, male, serum; oral, 120 mg/kg/day, 14 days): 52.9 g/L
O=C1c2ccccc2C(=O)c2ccccc21  viability (HK-2 co-cultured with HepaRG; MTT; 66.67 µM, 48 h; baseline: untreated control): 53.4 ± 4.56%
COc1ccc(N2C(=O)N(c3c(C)cccc3Cl)Cc3cnc(Nc4ccc(C5CCN(C)CC5)cc4OC)nc32)nc1  inhibition (CLK2 (Homo sapiens, UniProt P49760); kinase activity; 0.5 µM): 6%
CC[C@H](C)[C@H](NC(=O)[C@H](Cc1ccccc1)NC(=O)[C@H](CCC(=O)O)NC(=O)[C@H](CCCNC(=N)N)NC(=O)[C@H](C)NC(=O)[C@H](C)NC(=O)[C@H](CCC(N)=O)NC(=O)[C@H](CCC(=O)O)NC(=O)[C@H](CCC(=O)O)NC(=O)[C@H](CC(C)C)NC(=O)[C@H](Cc1ccc(O)cc1)NC(=O)[C@H](CO)NC(=O)[C@H](CO)NC(=O)[C@@H](NC(=O)[C@H](CC(=O)O)NC(=O)[C@H](CO)NC(=O)[C@@H](NC(=O)[C@H](Cc1ccccc1)NC(=O)[C@@H](NC(=O)CNC(=O)[C@H](CCC(=O)O)NC(=O)[C@H](C)NC(=O)CCc1c[nH]cn1)[C@@H](C)O)[C@@H](C)O)C(C)C)C(=O)N[C@@H](C)C(=O)N[C@@H](Cc1c[nH]c2ccccc12)C(=O)N[C@@H](CC(C)C)C(=O)N[C@H](C(=O)N[C@@H](CCCNC(=N)N)C(=O)NCC(=O)N[C@@H](CCCNC(=N)N)C(=O)N[C@@H](CCCCNC(=O)COCCOCCNC(=O)COCCOCCNC(=O)CC[C@H](NC(=O)CCCCCCCCCCCCCCCCC(=O)O)C(=O)O)C(=O)NCC(=O)NCC(=O)N[C@@H](CO)C(=O)N[C@@H](CCCCNc1c(NCCCCCN(O)C(=O)CCC(=O)NCCCCCN(O)C(=O)CCC(=O)NCCCCCN(O)C(C)=O)c(=O)c1=O)C(=O)O)C(C)C [zirconium-89 labelled]  tissue uptake (rat, muscle; iv, 3 nmol/kg, 24 h, ex vivo): 0.07 %ID/g
COc1cc2c(cc1OC)CN(CCc1ccc(NC(=O)c3cccc4c(=O)c5cccc(OC)c5[nH]c34)cc1)CC2  half-life (CD-1 mouse, male, plasma; intraperitoneal, 1 mg/kg): 13.2 h
O=C(c1ccc(F)c(F)c1Nc1ccc(I)cc1F)N1CC(O)([C@@H]2CCCCN2)C1  AE causing dose modification (human patients; oral, 1 mg/kg, age ≥18 years): 100%
CC(C)(C)c1cc(-n2nc3ccccc3n2)c(O)c(C(C)(C)C)c1  mean daily dermal uptake (exposure assessment; human, age 11-16 years; sunscreen): 1.34 ng/kg body weight/day
O=C1Nc2cc3[nH]nc(-c4ccncc4)c3cc2CN1Cc1ccccc1  patients with fatigue (CTCAE v4.03; advanced solid tumour patients; intravenous, 0.45 mg/kg, schedules 1/2): 100%
C=CC(=O)N1CC[C@H](n2nc(C#Cc3cc(OC)cc(OC)c3)c3c(N)ncnc32)C1  decreased appetite, any grade (human patients; oral, dose not given, QD regimen, adverse drug reaction, with: sevelamer hydrochloride): 45.5%
O[C@H]1CCCN[C@@H]1CCCn1cnc2c(Cl)c(Cl)ccc21  AUCtau (healthy human, plasma; oral, 150 mg twice daily, steady state): 1260 ng·h/mL
C/C(=N\C#N)N(C)Cc1ccc(Cl)nc1  concentration (soil; 28 days, nominal 1.1): 0.05 mg/kg dry soil
C[C@H]1CN(c2n[nH]c3nc(N[C@H]4CC[C@H](NS(=O)(=O)CCC(F)(F)F)CC4)ncc23)CCO1  remaining binding (Isoleucine--tRNA ligase, cytoplasmic (Homo sapiens, UniProt P41252); Kinobeads competition, measured: IARS; 0.8 µM, unit not given; baseline: vehicle): 1.06
CC(=O)c1c(C)c2cnc(Nc3ccc(C4CCN(CCS(C)(=O)=O)CC4)cn3)nc2n(C2CCCC2)c1=O  Vd (human, plasma; oral, 25 mg once daily, day 21, multiple doses): 794 L
CN1CC[C@@H](c2c(O)cc(O)c3c(=O)cc(-c4ccc(C(F)(F)F)cc4Cl)oc23)[C@@H]1CO  patients with adverse event (measured: Diarrhea; B-cell malignancies; oral, 100 mg, intermittent dosing): 33.3%
CC[C@H](C)[C@H](NC(=O)[C@H](Cc1ccccc1)NC(=O)[C@H](CCC(=O)O)NC(=O)[C@H](CCCCN)NC(=O)[C@H](C)NC(=O)[C@H](C)NC(=O)[C@H](CCC(N)=O)NC(=O)CNC(=O)[C@H](CCC(=O)O)NC(=O)[C@H](CC(C)C)NC(=O)[C@H](Cc1ccc(O)cc1)NC(=O)[C@H](CO)NC(=O)[C@H](CO)NC(=O)[C@@H](NC(=O)[C@H](CC(=O)O)NC(=O)[C@H](CO)NC(=O)[C@@H](NC(=O)[C@H](Cc1ccccc1)NC(=O)[C@@H](NC(=O)CNC(=O)[C@H](CCC(=O)O)NC(=O)[C@H](C)NC(=O)N(N)Cc1c[nH]cn1)[C@@H](C)O)[C@@H](C)O)C(C)C)C(=O)N[C@@H](C)C(=O)N[C@@H](Cc1c[nH]c2ccccc12)C(=O)N[C@@H](CC(C)C)C(=O)N[C@H](C(=O)N[C@@H](CCCNC(=N)N)C(=O)NCC(=O)N[C@@H](CCCNC(=N)N)C(=O)NCC(=O)O)C(C)C  AUC extrapolated percentage (LC-MS/MS; ICR mice, male, plasma; intravenous bolus, 1 mg/kg): 0.3%
CN1CCN(S(=O)(=O)c2cc([N+](=O)[O-])ccc2N(CCOS(C)(=O)=O)CCOS(C)(=O)=O)CC1  alkaline phosphatase (naive NOD/SCID mice, pooled blood; intraperitoneal, 12.5 mg/kg, week 4): 70 U/L
COc1ccc2c(c1OC)C(=O)c1c(cc(C)c(O)c1OC)C2=O  cell viability (HepaRG co-cultured with HK-2; MTT; 266.67 µM, 24 h; baseline: untreated control): 74.7 ± 8.89%
O=[Se](=O)([O-])[O-].[Na+].[Na+]  Tmax (rat; subcutaneous, 0.2 mg/kg): 1 h
O.O.O.O.O.O.[Cl-].[Cl-].[Co+2]  urinary cobalt creatinine-corrected (rat male, urine; oral, 10 mg/kg single, day 3): 0.0266 µg/µmol creatinine
[Cl][212Pb][Cl]  tissue uptake (athymic mice, C4-2 xenograft, muscle; intravenous, 2 h, 212Pb-labelled): 0.17 ± 0.02 %ID/g
CC(C)=CC1C(C(=O)OC(C#N)c2cccc(Oc3ccccc3)c2)C1(C)C (stereo not shown)  enzyme contribution to clearance (measured: CYP2C8; human, age 1 year): 5.79%
C=CCNc1c(O)cc2c(O)c1C[C@@H](C)C[C@H](OC)[C@H](O)[C@@H](C)/C=C(\C)[C@H](OC(N)=O)[C@@H](OC)/C=C\C=C(/C)C(=O)N2  patients with infusion site pain (unresectable or metastatic STS, GIST, other; intravenous, 150 mg/m^2): 33%
CN(C(=O)n1cnc(-c2ccc[n+]([O-])c2)c1)C1CCCCC1  concentration (Wistar rat, cerebral cortex; oral, 10 mg/kg/day, 72 h, repeated 5 days): 8.1 ± 2.1 ng/g
COc1cc2c(Oc3ccc4[nH]c(C)cc4c3F)ccnc2cc1OCC1(N)CC1  grade 1 or 2 Nausea (paediatric recurrent refractory sarcoma; 10 mg): 0%
Oc1ccc2c3c1O[C@H]1[C@@H](O)CC[C@@]4(O)[C@@H](C2)N(CC2CCC2)CC[C@]314  log2 fold change (GPBAR1 (Homo sapiens, UniProt Q8TDU6); receptor activation, TANGO luminescence; concentration not given, unconfirmed screen; baseline: vehicle control): -0.096
COc1ccc2c(c1)CN(C(=O)CCN1CCC(Cc3ccccc3)CC1)CC[S@@+]2[O-]  short-term variability of QT (dogs, chronic AV block; intravenous, 1 and 3 mg/kg): no effect
Cc1cc(C)c(CNC(=O)c2cc(Cl)c3c(c2C)O[C@@](C)([C@H]2CC[C@H](N(C)C)CC2)O3)c(=O)[nH]1  Hyperglycaemia incidence (human, relapsed/refractory NHL; concentration not given, treatment-related TEAEs, grade 5): 0%
CN(C(=O)n1cnc(-c2ccc[n+]([O-])c2)c1)C1CCCCC1  concentration (culture medium without cells; 100 nM, 1 h): 93.8 ± 2.5 nM
O=S(=O)(Nc1ccccc1)c1ccc(NC(=S)Nc2ccccc2)cc1  relative organ weight (female mice, thymus; oral, 80 mg/kg daily 14 days; baseline: body weight): 0.35%
COc1ccc(C[C@@H]2NC(=O)[C@H]([C@@H](C)O)NC(=O)[C@@H]3[C@@H]4CCN3C(=O)[C@@H]3Cc5cn(c6ccc(F)cc56)CCCCCCN(Cc5ccc(cc5)CCNC(=O)[C@]5(C)CCCN5C2=O)C(=O)CCC(=O)N[C@@H](C)C(=O)N[C@H](CNC(=O)CCCCC[N+](C)(C)C)C(=O)N[C@@H](Cc2cccc(c2)CNC(=O)CO4)C(=O)N3)cc1  participants with adverse event (measured: Vomiting; humans; concentration not given, Study-001): 2%
CCN1CCN(Cc2ccc(Nc3ncc(F)c(-c4cc(F)c5nc6n(c5c4)[C@H](C)CCC6)n3)nc2)CC1  Hematuria incidence, any grade (advanced solid tumour patients; dose not given, Phase Ia monotherapy): 37.5%

Excerpt of the above:
COc1ccc2c(c1)CN(C(=O)CCN1CCC(Cc3ccccc3)CC1)CC[S@@+]2[O-]  short-term variability of QT (dogs, chronic AV block; intravenous, 1 and 3 mg/kg): no effect
[Cl][212Pb][Cl]  tissue uptake (athymic mice, C4-2 xenograft, muscle; intravenous, 2 h, 212Pb-labelled): 0.17 ± 0.02 %ID/g
CC(C)=CC1C(C(=O)OC(C#N)c2cccc(Oc3ccccc3)c2)C1(C)C (stereo not shown)  enzyme contribution to clearance (measured: CYP2C8; human, age 1 year): 5.79%
CC[C@H](C)[C@@H]1NC(=O)[C@@H]2CCCN2C(=O)[C@H](CC(C)C)NC(=O)[C@H](CC(C)C)NC(=O)CNC(=O)[C@@H](NC(=O)[C@@H](NC(=O)[C@H](CC(=O)O)NC(=O)CNC(=O)[C@@H](NC(=O)[C@H](C)NC(=O)CNC(=O)[C@H](CCCCN)NC(=O)[C@H](CC(C)C)NC(=O)[C@H](CC(C)C)NC(=O)[C@H](CCCCN)NC(=O)CNC(=O)[C@@H](NC(=O)[C@@H](N)CC(C)C)C(C)C)C(C)C)C(C)C)CSSC[C@@H](C(=O)O)NC1=O  log2 fold change (RNA-seq, measured: Col7a1; mouse, traumatic brain injury model, frontal cortex and hippocampus; dose not given; baseline: TBI alone): -1.81
